Experimental data pooled from the literature.
Parts stem from different laboratories: compare values within a part only.

Sample 1 — technique: RNA Bind-n-Seq; molecule type: RNA; sample: in vitro; tested at: 365 nM; baseline: no-protein control; reading: higher = stronger binding; endpoint: RBNS enrichment (R)
Target: RNA binding protein fox-1 homolog 2, RRM domain, GST-SBP tag (RBFOX2, Homo sapiens, UniProt O43251-10, residues 100-194)
Setting: natural RNA segment, single round, ends assumed
All sequences stand within: GGGAGUUCUACAGUCCGACGAUC … UGGAAUUCUCGGGUGCCAA
Residues (chain): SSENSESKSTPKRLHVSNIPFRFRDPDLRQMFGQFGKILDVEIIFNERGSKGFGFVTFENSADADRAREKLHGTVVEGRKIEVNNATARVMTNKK
Sequence = UGUGGCUGUCUUUUUUAAUCCUUGUGUAAAGCAGCAAAAAAGACCUAAAGGGAAUUGUAAUUUGGUUAUAAUUCAGGAUUUGGAAAUAAAUUUAUUAUUUGUAAAACAUG; result = 0.331
Sequence = UUCAAAGAACAUUGAGUUGUAUUUAAUCAGCGUGUACUCCAUUUGCAUUGAAGCAUUAAAAAUUAUUUUUCUUAAAAUCUCUUUAAGGCCUUCUUGUUGCUGUUAGAAUA; result = 0.779
Sequence = UCUCUCAGUAUGUGGGAAAUCCAGGCAAGUUUUAGAAUGUCCUAAAUUGAGCUAUUUUCACUUACUGUGUAACAGAGACAGAUAAUAAAUCUAUCAUUUGAUUUGAACUU; result = 0.545
Sequence = UGCCAUGGCCUGAGCCCCCAGAUGUCACACCUGUCCGCACGCACGGCACAUGGAUGCCCACGCAUGUGCAAAAACAACUCAGGGACCAGGGACAGACCUGCUGCCAAGUG; result = 5.14
Sequence = CCAGUGGAAGAAACACCCUUUCAUCUCAGAGUCCACUGUGGCACUGGCCACCCCUCCCCAGUACAGGGGUGCUGCAGGUGGCAGAGUGAAUGUCCCCCAUCAUGUGGCCC; result = 0.286
Sequence = GAGCAAUUAUAAAAUCUUCAAUCAAUUGAACUUUUACAAAACCACUUGAGAAUUUCAUGAGCACUUUAAAAUCUGAACUUUCAAAGCUUGCUAUUAAAUCAUUUAGAAUG; result = 0.769
Sequence = AGAAUGCUGAUGCUUUUGUAAGGCUUUGACCUGGUUAGGUCAUUGGGGGAAAUUUUCUAUAAAAGAGUGAACAAUUAUAUUUAUAUUUCAAGUUAAAGUAGUUUGGAUAC; result = 0.765
Sequence = GCAUGUCACACCCCCCCUCAGUAGACUUGAGUAUUUUGAUGACCAAAGAGGAUGAUUUUCCUCAGAGAGAAGUGCCAGCGCCCUCCAGAGCUGUGAUCCAGGAUGGCAUG; result = 5.61
Sequence = AUGCAAUAAUAAAAUCAGCAUCUGGGUCUUUGCAGCUGUCAGUUGUUCUUUAAACUCUAGGAUCCAUCUUUGGACCAAAAGUCUGGUCUGGGCCUAGGAUGGCAUUGGCC; result = 1.36
Sequence = GACUGGCCUUCCCGGCUCAGCCAGUGAGGCUCAGAAGGGACACAAAGAGGGAUGGAAGAAAAGAACAAAGAGAAACUGUUCCUCCCACCCCCUUCCCUGAUGCCAGGGGC; result = 0.288
Sequence = UGGGUUUUGGAGCUUUUAAAAAUGUUUGCUUUCAGGUAUUUUUACUCAUGUGAAGUGAUCUUGAUUCUUCUGAGGUUUUAAACUAAAAUGUUGCUUCCUGUUUUAGUGUC; result = 4.21
Sequence = AAAGGAUGGAAUUCUUUAUGAAGUGGGUUACAGAUCUUUGAAUAUGUUAUUUAUAAAAAAAUCAUUUAAAAAUUCUAGGUCAUUUUUCUCAGAACUAAAUUCAAAACAGG; result = 0.914

Sample 2 — technique: protein binding microarray; molecule type: double-stranded DNA, one strand shown; sample: in vitro; tested at: not given; baseline: not given; reading: higher = stronger binding; endpoint: E-score
Target: Histone acetyltransferase KAT6A, both winged helices, GST fusion (KAT6A, Homo sapiens, UniProt Q92794, residues 1-181)
Setting: 8-mer, flanks averaged, mean of 2 arrays, mostly near background
Construct (chain): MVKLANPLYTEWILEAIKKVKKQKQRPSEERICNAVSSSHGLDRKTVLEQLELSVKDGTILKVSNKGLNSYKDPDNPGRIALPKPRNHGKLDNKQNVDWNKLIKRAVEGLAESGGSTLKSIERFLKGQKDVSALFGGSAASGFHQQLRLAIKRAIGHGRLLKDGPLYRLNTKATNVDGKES
Sequence = CACTACAG; result = -0.202
Sequence = TCGATACA; result = -0.0955
Sequence = GCAATTAA; result = 0.081
Sequence = GTTCGAAA; result = 0.169
Sequence = ATGATCAG; result = -0.159
Sequence = CTTAGATC; result = -0.124
Sequence = ACGTTGAA; result = 0.00246
Sequence = ATGTGTAC; result = -0.0483
Sequence = GTGTCAGA; result = -0.093
Sequence = CGTGAACA; result = 0.18
Sequence = AGGGTACA; result = -0.267
Sequence = AGCAGAAT; result = -0.0682
Sequence = CTCATGGA; result = -0.0924
Sequence = AAAATTCT; result = 0.0657
Sequence = ACACCTAT; result = -0.0546
Sequence = GGGAGTCA; result = -0.165
Sequence = AATGAGCA; result = -0.146
Sequence = CATTGGTC; result = -0.165
Sequence = GCTCTACA; result = 0.00816

Sample 3 — technique: RNA Bind-n-Seq; molecule type: RNA; sample: in vitro; tested at: not given; baseline: input RNA pool; reading: higher = stronger binding; endpoint: bound/input enrichment
Target: RING finger protein unkempt homolog, zinc fingers 1-6, GST-SBP tag (UNK, Homo sapiens, UniProt Q9C0B0, residues 30-357)
Setting: RNA with constant flanks, human and mouse sites, ends assumed
All sequences stand within: GGGAGUUCUACAGUCCGACGAUC … CAACAGAGGAUUGAGCAUCA
Construct (chain): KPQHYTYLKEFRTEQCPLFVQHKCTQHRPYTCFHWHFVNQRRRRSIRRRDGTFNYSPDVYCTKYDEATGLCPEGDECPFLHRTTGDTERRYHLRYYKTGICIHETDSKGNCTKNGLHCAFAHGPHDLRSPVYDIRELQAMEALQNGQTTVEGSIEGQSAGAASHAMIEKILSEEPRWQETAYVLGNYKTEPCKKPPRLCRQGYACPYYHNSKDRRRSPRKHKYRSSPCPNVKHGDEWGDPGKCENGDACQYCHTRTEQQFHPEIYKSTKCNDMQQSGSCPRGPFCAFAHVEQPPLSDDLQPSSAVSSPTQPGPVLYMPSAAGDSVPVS
Sequence = AUGCAAGCUGAACUGAAUCGCCUCCAAGCAGAAAAUGAUGCUUCUAAAGAAGAAGUCAAAGAAGUUUUACAGGCCUUAGAGGAACUGGCUGUUAAUUAUGAUCAGAAGUCUCAGGAAGUU; result = 0.0796 ratio
Sequence = GAAAUAAAGAAAUUGUCAAGUAUCUGCUAAAUCAAGGGGCUGAUGUUGCUCUUCGAGCCAAAAAUGGGUACACGGCCUUUGACCUGGUGAUGCUGCUGAACGAUCCUGACACUGAACUUG; result = 0.159 ratio
Sequence = GGAAUAUUCAUUGUACUGAAUAUUACCCUUGUGCUUGCCGCUGUAUUUAAACUUGAAACAGAUAGAAGUAUAUGGCCCUUGAUAAGAAUCUAUCGGGGUGGCUUUCUUCUGAUUGAAUUC; result = 0.191 ratio
Sequence = UGCUGUUGAAGUACAUGUAUAUUAUAAAUUAUCUUAUUUGUGUUAUACUCUUACAUGUUAUCUUUUCUAAGAAAACAAAGUCCCUAUUAUUCCUAUUGCAAAGCACACAGGAAUUAAGAA; result = 0.194 ratio
Sequence = GAUAUCACCCAGACACCGCCAGCAUACAUAAACGUGUUACCAGGUUUGCCCCAGUACACCAGCAUAUAUACACCCUUGGCCAGCCUUUCUCCUGAAUAUCAGCUACCAAGAUCAGUACCA; result = 0.291 ratio
Sequence = CAAUGCGUAUGAGUCUUUGACAUCAUGAUGUACAUCCGGCAAAGAAAAGAGACAAAACCCAUAGAAGUUUCUGAGGAUUUUCCAUCACCAAAAGAAGAUGUGAAGUUGGAAAAGAAAUUG; result = 0.347 ratio
Sequence = UGGUAUACAGACCAGUUUUAGGACUGGUAAUCCAACAGGGACUUACCAGAAUGGUUAUGAUAGCACUCAGCAAUACGGAAGUAAUGUUCCAAAUAUGCACAAUGGUAUGAACCAACAGGC; result = 0.141 ratio
Sequence = CUCUUUUAGGGUUGUCUUUUUACAAACCAUGACUUUCCACUUGCCUGUAGUUUUUUGUUUGUUUUGGUUUGGUUUGAUUUUAUAUUUUUUUCUCCUAAUCUAUGACUUUAUUGUUUUUUC; result = 6.34 ratio
Sequence = GGUGCAUGGAACAUGAAUUCUUAACAGAGAUUUCAGAUUUCCUUGUCUUUGCUAAAUACAUAGUAUGAAACCCCUUAAUUUUUCUUGUUUAAUGAAUGGAGAACACAUGAGAAAAUCAGA; result = 0.315 ratio
Sequence = CCAUGGGGGUCUUGCUUAUGUGUGUCACCAGAGAGUGGAAGAGCUCAAAGGCCAUAACCCUUUACCUUCUCCAUGGAGGGACAGGCCUAAGGAAGAAUCAUUGCUGCUCUUUGAGGCAAU; result = 0.171 ratio
Sequence = UGGAGUGGAGGCUGAGCCCUCUUUCCUUGGCUUCCAUUUAAAAUGAACUUCACAACAUUCUAGCUAUUGAGGGAUGACAAAAGGAACCCAGAAAAGUGUGUAGGAAAUUACAAGCAGGUU; result = 1.01 ratio

Sample 4 — technique: aptamer microarray, sandwich; molecule type: DNA with 2'F-ANA; sample: in vitro; tested at: 200 nM; together with: Cy3 exosite-II aptamer, 400 nM; reading: higher = stronger binding; endpoint: mean fluorescence intensity; sequence: GGTTGGTGTGGTTGG
Target: Prothrombin, mature alpha-thrombin (F2, Homo sapiens, UniProt P00734)
Setting: whole 15-mer aptamer, many near background
Modification = 2'F-ANA at 2 4 5 8 10 11 12 14 15; result = 48.1 a.u.
Modification = 2'F-ANA at 3 6 8 9 12 13; result = 1060 a.u.
Modification = 2'F-ANA at 4 9 10 11 12 13 14; result = 62.1 a.u.
Modification = 2'F-ANA at 1 7 11; result = 177 a.u.
Modification = 2'F-ANA at 5 6 7 10 11 13 15; result = 46.5 a.u.
Modification = 2'F-ANA at 2 6 9 15; result = 365 a.u.
Modification = 2'F-ANA at 1 2 4 6 12 13 14 15; result = 56 a.u.
Modification = 2'F-ANA at 1 2 4 5 9 13 14 15; result = 46.8 a.u.
Modification = 2'F-ANA at 4 5 9 10 11 12; result = 48.7 a.u.
Modification = 2'F-ANA at 1 2 3 5 7 8 9 12 13; result = 87.3 a.u.
Modification = 2'F-ANA at 2 3 7 11 12 14; result = 473 a.u.
Modification = 2'F-ANA at 1 2 4 5 6 7 8 10 11 12 14 15; result = 52.9 a.u.
Modification = 2'F-ANA at 3 6 8 9 10 11 12 13 14 15; result = 358 a.u.
Modification = 2'F-ANA at 4 6 7 14; result = 91.9 a.u.
Modification = 2'F-ANA at 1 5 6 8 10 12 14; result = 50 a.u.
Modification = 2'F-ANA at 1 2 3 4 8 10 11 13 14; result = 49.6 a.u.
Modification = 2'F-ANA at 2 4 5 6 7 8 10 11 13 14 15; result = 49.9 a.u.
Modification = 2'F-ANA at 1 2 3 4 8 9 10 11 13 14 15; result = 144 a.u.

A few entries again (sample 2):
Sequence = TCGATACA; result = -0.0955
Sequence = GCAATTAA; result = 0.081
Sequence = GTTCGAAA; result = 0.169
Sequence = ATGATCAG; result = -0.159
